Assay results from different studies.
Compare with care: the assays were run in different laboratories. Numbers after ± are the reported error.

For `CNCc1ccc(-c2[nH]c3cc(F)cc4c3c2CCNC4=O)cc1`, the clearance was 533 mL/min (human cancer patients, plasma; intravenous, 4 mg/m2, day 1, with: temozolomide 100).
`O=C(/C=C/c1cccc(S(=O)(=O)Nc2ccccc2)c1)NO` has a clearance of 505 mL/min/m² (human moderate liver dysfunction, plasma; intravenous, 400 mg/m^2, 30 min infusion, cycle 1 day -7).
`NC(=S)NN=Cc1ncccc1N` gave a clearance of 574 ± 220 mL/min (human, plasma; intravenous, 90 mg, steady state).
The clearance of `C/C(=C\c1csc(C)n1)[C@@H]1C[C@@H]2O[C@]2(C)CCC[C@H](C)[C@H](O)[C@@H](C)C(=O)C(C)(C)[C@@H](O)CC(=O)N1` is reported as 468 mL/min (LC-MS/MS; human, plasma; intravenous infusion, 70 mg, 3 h infusion).
The clearance of `CS(=O)(=O)CCNCc1ccc(-c2ccc3ncnc(Nc4ccc(OCc5cccc(F)c5)c(Cl)c4)c3c2)o1` is reported as 1060 mL/min (healthy human, plasma; oral, 100 mg, single dose).
`CC(C)C[C@H](NC(=O)[C@H](CCc1ccccc1)NC(=O)CN1CCOCC1)C(=O)N[C@@H](Cc1ccccc1)C(=O)N[C@@H](CC(C)C)C(=O)[C@@]1(C)CO1` has a clearance of 1700 ± 455 mL/min (human patients, plasma; intravenous infusion 10 min, 20 mg/m^2, day 1 of cycle 1, KRd regimen).
`CN[C@H]1C(=O)N[C@@H]2Cc3ccc(cc3)Oc3cc4cc(c3O[C@@H]3O[C@H](C(=O)O)[C@@H](O)[C@H](O)[C@H]3NC(=O)CCCCCCCCC(C)C)Oc3ccc(cc3Cl)[C@@H](O)[C@@H]3NC(=O)[C@H](NC(=O)[C@@H]4NC(=O)[C@@H](NC2=O)c2cc(cc(O)c2Cl)Oc2cc1ccc2O)c1ccc(O)c(c1)-c1c(O[C@H]2O[C@H](CO)[C@@H](O)[C@H](O)[C@@H]2O)cc(O)cc1[C@@H](C(=O)NCCCN(C)C)NC3=O` gave a clearance of 0.833 mL/min (population PK model; human patients; intravenous, typical covariate values).
The clearance of `Cc1ccc(NC(=O)c2ccc(CN3CCNCC3)cc2)cc1Nc1nccc(-c2cccnc2)n1` is reported as 1110 mL/min (human patients; oral, 400 mg of imatinib, first dose, day 1 of cycle 1).
`CC(=O)O[C@H]1C(=O)[C@@]2(C)[C@H]([C@H](OC(=O)c3ccccc3)[C@]3(O)C[C@H](OC(=O)[C@H](O)[C@@H](NC(=O)c4ccccc4)c4ccccc4)C(C)=C1C3(C)C)[C@]1(OC(C)=O)CO[C@@H]1C[C@@H]2O` has a clearance of 9.8 ± 3 L/h/m² (human, plasma; intravenous, 175 mg/m², cycle 1, no ritonavir, with: carboplatin).
`NS(=O)(=O)OC[C@@H]1C[C@@H](n2ccc3c(N[C@H]4CCc5ccccc54)ncnc32)C[C@@H]1O` gave a clearance of 387 mL/min (human; intravenous, 8 mg/m^2 single dose, day 8, with: itraconazole).
